Results from different studies.
Every numbered part comes from another study and shows a few of its results, in no order. “And” joins repeats or separate records; there may be more than shown.

Study 1 — method: RNA Bind-n-Seq; molecule type: RNA; medium: in vitro; concentration: 365 nM; relative to: no-protein control; reading: higher = stronger binding
Target: RNA binding protein fox-1 homolog 2, RRM domain, GST-SBP tag (RBFOX2, Homo sapiens, UniProt O43251-10, residues 100-194)
Notes: natural RNA segment, single round, ends assumed
Constant ends, left off below: GGGAGUUCUACAGUCCGACGAUC … UGGAAUUCUCGGGUGCCAA
Under “RBNS enrichment (R)”, `UAAUGUUGGAAACACAAAUAGUGCAAUUUGUGCAAUUGGAGAAUCUUGCCUUUUUUCUUGUCUCCCUCCCACCCCCCAACACAAACAAACAGAAGCUUGUACGUAUUCAU` is recorded as 1.09.
For `ACUUACACUGUAUAUUUUGCAAUAGUUACCUCAAGGCCUACUGACCAAAUUGUUGUGUUGAGAUGAUAUUUAACUUUUUGCCAAAUAAAAUAUAUUGAUUCUUUUCUAUU`, “RBNS enrichment (R)” read 0.463.
`UCCCACACCAUCUGAGUGACUUGAAUUCCAGGGUUGGGCUCUGUCUUGAGUCUCCACAUCAGUCUCACACCAGGGAACUUGGGGGUCCCCCGUUAAACUACAGCUGACCC`: “RBNS enrichment (R)” 0.364.
`CUCCCUGCCAGCCUCCUGUGUCAAACCAGGUCCCUUCUCAGUACUGUAUUGGCUCAGUGCUUUCAGGAGUGAGUGUGUGAGUGAGUGUGUGAGUGUGUGUGGGCGUGAGC` — result for “RBNS enrichment (R)”: 0.868.
Under “RBNS enrichment (R)”, `UGAACAGCCUCGAUUUUUAAGAAAAUUUAUGAAAUGUAUUUGUCUGUAAAAAUUGUAUAUAUUUUUACAGAAAGUCUAUUUCUUUGAACAUAAGAGGGAAGUCUUGGAUU` is recorded as 0.688.
`AAAGGAAUCUGAUUAACAUUUAUGCAUUUUAUUUUCAGAAGGACUUUCAGUUAUCCAUAAAUCUAAGCAUAACUGCUACCAUUUAUACAUGAGAAAAUGACAGAGGAACU` — result for “RBNS enrichment (R)”: 0.522.
For `AGAAAUUCUAAUUGUUAGAAAUCCUUCCUUAUAAUGAAUGAAUUCUGCUUUCCUAUAAUUUCUACCUAUUGGGCCUUGUUCUGUUCUCUGGAACUAAACAGAACAACCAU`, “RBNS enrichment (R)” read 0.43.
`UUUUUCUUGAAUUGUAGCCAGUGAGAAAAGCAGAUAGACUGAAGAAUAUGAAGGAUAGCUGAGCUGUAGCCUCCAGAGUGGGGCAUGCCUAGGCAUAUGGCUGGCUUGGA`: “RBNS enrichment (R)” 0.771.

Study 2 — organism: Vesicular stomatitis virus; read-out: pseudovirus infection; method: FDA-approved drug library screen; concentration: concentration not given; notes: SARS-CoV-2 spike pseudotype; relative to: vehicle
For `CN(C)CCOC(c1ccc(Cl)cc1)c1ccccn1.O=C(O)/C=C\C(=O)O` (stereo not shown), the GFP-positive cells was 79%.
`O=C([O-])c1ccccc1[O-].[Bi+3].[OH-]` gave a GFP-positive cells of 73.1%.
For `Cc1ccc(NC(=O)C2(c3ccc4c(c3)OC(F)(F)O4)CC2)nc1-c1cccc(C(=O)O)c1`, the GFP-positive cells was 64.3%.

Study 3 — method: protein binding microarray; molecule type: double-stranded DNA, one strand shown; medium: in vitro; concentration: not given; relative to: not given; reading: higher = stronger binding
Target: Histone acetyltransferase KAT6A, winged helix 2, GST fusion (KAT6A, Homo sapiens, UniProt Q92794, residues 85-181)
Notes: 8-mer, flanks averaged, mean of 2 arrays, mostly near background
Construct (chain): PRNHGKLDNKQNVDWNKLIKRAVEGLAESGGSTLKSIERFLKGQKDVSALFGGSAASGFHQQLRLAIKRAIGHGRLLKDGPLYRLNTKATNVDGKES
The E-score of `ACCCGCTC` is reported as -0.0801.
The E-score of `TAGGCCCA` is reported as -0.0801.
For `AGGGTAAT`, the E-score was -0.116.
The E-score of `AGGAGTTC` is reported as -0.134.
For `CATAAACG`, the E-score was -0.173.
With `CTAGTAAG` the E-score was 0.0234.
For `GGTGCACC`, the E-score was 0.0448.
For `ATCGGGCA`, the E-score was 0.00954.

Study 4 — method: protein-binding microarray; molecule type: double-stranded DNA, one strand shown; medium: in vitro; concentration: 2540 nM top; notes: 60-bp whole probe; added: salmon DNA 0.4 mg/ml; relative to: random background probes; reading: higher = stronger binding; constant ends, left off below: GCCTAGCACT … GTCTTGATTCGCTTGACGCTGCTG
Target: Interferon regulatory factor 3, full length, phosphomimetic (IRF3, Homo sapiens, UniProt Q14653, residues 1-427, S386D/S396D/S398D/S402D/T404D/S405D)
Target sequence (chain): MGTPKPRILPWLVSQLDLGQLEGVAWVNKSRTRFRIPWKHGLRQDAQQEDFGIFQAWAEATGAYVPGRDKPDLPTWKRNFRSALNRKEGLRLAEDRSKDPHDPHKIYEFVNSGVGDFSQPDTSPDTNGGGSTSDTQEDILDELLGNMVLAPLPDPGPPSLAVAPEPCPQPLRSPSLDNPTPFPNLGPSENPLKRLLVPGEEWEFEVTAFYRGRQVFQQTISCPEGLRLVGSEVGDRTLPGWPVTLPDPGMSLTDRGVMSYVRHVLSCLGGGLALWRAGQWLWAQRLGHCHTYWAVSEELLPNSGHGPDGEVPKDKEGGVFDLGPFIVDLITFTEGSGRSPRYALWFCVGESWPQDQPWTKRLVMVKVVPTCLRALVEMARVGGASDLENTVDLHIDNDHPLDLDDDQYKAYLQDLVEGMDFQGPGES
For `TAGGTTTCCTTTTCCATTAGTGCTAG`, “fitted relative affinity” read 11.2 z-score.
`CAAGGTCCCTTTTCATACTGTGCTAG` — result for “fitted relative affinity”: 3.12 z-score.
Under “fitted relative affinity”, `TAGATTTCGGGTATCGATTGGTGCTA` is recorded as 1.24 z-score.
`GTGCTTTCCTGATGGTTTTGTGCTAG` — result for “fitted relative affinity”: 1.39 z-score.
For `TAAGACTGGACACTGGGTTAGTGCTA`, “fitted relative affinity” read -0.774 z-score.
`CAGGTTCAGATATAGGACTGTGCTAG` — result for “fitted relative affinity”: 0.555 z-score.
`TAGGTATCCTTATCCTTAAGTGCTAG` — result for “fitted relative affinity”: 5.71 z-score.
`GTAATGATGTAGGCAAATGGTGCTAG`: “fitted relative affinity” -0.476 z-score.

Study 5 — mode: inhibitor; concentration: 20 µM
Target: Replicase polyprotein 1ab, nsp13 helicase (rep, Severe acute respiratory syndrome coronavirus 2, UniProt P0DTD1)
`C[C@H](Nc1ncnc2[nH]cnc12)c1cc2ccc(F)cc2nc1-c1ccccn1` has an inhibition of -2.77% and -0.57%.
With `CC(C)=CCC[C@](C)(O)[C@H]1CC[C@]2(C)[C@@H]1[C@H](O)C[C@@H]1[C@@]3(C)CC[C@H](O[C@@H]4O[C@H](CO)[C@@H](O)[C@H](O)[C@H]4O[C@@H]4O[C@H](CO)[C@@H](O)[C@H](O)[C@H]4O)C(C)(C)[C@@H]3CC[C@]12C` the inhibition was 1.18%.
`O=C(c1ccc(CN2CCOCC2)cc1)N1CCN(C2CC2)CC1` gave an inhibition of -0.52%.
`CN[C@H]1CN(c2ccc3c(=O)c(C(=O)O)cn(-c4nccs4)c3n2)C[C@@H]1OC` has an inhibition of 5.04%.
The inhibition of `COc1cc2c(NC3CCN(C(C)C)CC3)nc(N3CCC(F)(F)CC3)nc2cc1OCCCN1CCCC1` is reported as 11.6%.
`CN(C)CCOC(c1ccc(Cl)cc1)c1ccccn1` (stereo not shown) gave an inhibition of 0.56%.
For `O=C(O)CCn1c2c(c3ccccc31)C[C@H](NS(=O)(=O)c1ccc(F)cc1)CC2`, the inhibition was 0.51%.
The inhibition of `N[C@@H](CC(=O)O)C(=O)O` is reported as 3.16%.
`N#Cc1cccc(-c2c[nH]c3ncnc(N4CCOCC4)c23)c1` has an inhibition of -7.24%.
`CC(C)(C)CC(=O)Nc1c(F)cc(C(=O)N=c2sccn2COP(=O)(O)O)cc1F` has an inhibition of -1.07%.
For `C#CC[C@H](c1nc2cc(Cl)ccc2c(=O)n1Nc1ccccc1)N(CCCN)C(=O)c1cccc(Cl)c1F`, the inhibition was 12.1%.
`C=C[C@]1(C)C[C@@H](OC(=O)CSC(C)(C)CNC(=O)[C@H](N)C(C)C)[C@]2(C)[C@H](C)CC[C@]3(CCC(=O)[C@H]32)[C@@H](C)[C@@H]1O` gave an inhibition of 5.16%.
`CS(=O)(=O)c1ccc([C@@H](CC2CCCC2)C(=O)Nc2nccs2)cc1` has an inhibition of 5.24%.
`CC(=O)Nc1ccc(CC(=O)O)cc1` gave an inhibition of 4.68%.
The inhibition of `Cc1cn2nc([C@@H]3CCCCN3C(=O)c3cc(Cl)ccc3NS(C)(=O)=O)cc2nc1N1CC[C@H](N)C1` is reported as 7.81%.
`CCCC[P+](CCCC)(CCCC)Cc1ccc(NC(=O)[C@H](Cc2ccc3ccccc3c2)NC(=NC2CCCCC2)NC2CCCCC2)cc1` has an inhibition of 6.14%.
`NCCNCCNCCN` gave an inhibition of -3.12%.
With `Oc1c(I)cc(Cl)c2cccnc12` the inhibition was 6.91%.
`C#Cc1cccc2c1c(C(=O)c1ccc(Cn3c(C)nc4cnccc43)c(F)c1)cn2C(=O)N(C)C` has an inhibition of -1.01%.
With `O=C(NCC(=O)N1CCCC1)Nc1ccc2cnccc2c1` the inhibition was 10.1%.
For `CC1=C(/C=C/C(C)=C/C=C/C(C)=C/C(=O)Nc2ccc(O)cc2)C(C)(C)CCC1`, the inhibition was 12.8%.
With `CCC1NC(=O)c2cc(S(N)(=O)=O)c(Cl)cc2N1` (stereo not shown) the inhibition was -5.44%.
With `CC1=C(CCC(=O)O)c2cc3[nH]c(cc4nc(cc5[nH]c(cc1n2)c(C)c5C(C)O)C(C)=C4C(C)O)c(C)c3CCC(=O)O` (stereo not shown) the inhibition was 94.7%.
`C=CC(=O)Nc1ccc2ncnc(Nc3cccc(Br)c3)c2c1` has an inhibition of 2.41%.
`CCCCCCCC/C=C/CCCCCCCC(=O)OC[C@H]1O[C@@H](n2ccc(N)nc2=O)C(F)(F)[C@@H]1O` gave an inhibition of 8.36%.

Study 6 — read-out: enzyme activity; mode: inhibitor; concentration: 20 µM; notes: hit confirmation, with DTT
Target: Replicase polyprotein 1ab, main protease (rep, Severe acute respiratory syndrome coronavirus 2, UniProt P0DTD1)
`O=c1c(O)cccc2cc(O)c(O)c(O)c12` gave an inhibition of 98.7%.
With `CN(CCCN1c2ccccc2CCc2ccccc21)CC(=O)c1ccc(Cl)cc1` the inhibition was -24.1%.
`NC(Cc1cc(O)c(O)cc1O)C(=O)O` (racemic) has an inhibition of 70%.

Some of these lines once more (study 4):
`TAGGTATCCTTATCCTTAAGTGCTAG` — result for “fitted relative affinity”: 5.71 z-score.
For `TAGGTTTCCTTTTCCATTAGTGCTAG`, “fitted relative affinity” read 11.2 z-score.
`GTAATGATGTAGGCAAATGGTGCTAG`: “fitted relative affinity” -0.476 z-score.
`CAAGGTCCCTTTTCATACTGTGCTAG` — result for “fitted relative affinity”: 3.12 z-score.
`CAGGTTCAGATATAGGACTGTGCTAG` — result for “fitted relative affinity”: 0.555 z-score.
`GTGCTTTCCTGATGGTTTTGTGCTAG` — result for “fitted relative affinity”: 1.39 z-score.
